Measurements pooled from the literature.
Parts stem from different laboratories: compare values within a part only. Positions count from the first letter of the parent shown.

Set 1 — technique: universal PBM; molecule type: double-stranded DNA, one strand shown; sample: in vitro; concentration: 600 nM; reading: higher = stronger binding
Target: Sal-like protein 4, full length isoform A (SALL4, Homo sapiens, UniProt Q9UJQ4, residues 1-1053)
Sequence of UniProt Q9UJQ4 (whole entry, looked up): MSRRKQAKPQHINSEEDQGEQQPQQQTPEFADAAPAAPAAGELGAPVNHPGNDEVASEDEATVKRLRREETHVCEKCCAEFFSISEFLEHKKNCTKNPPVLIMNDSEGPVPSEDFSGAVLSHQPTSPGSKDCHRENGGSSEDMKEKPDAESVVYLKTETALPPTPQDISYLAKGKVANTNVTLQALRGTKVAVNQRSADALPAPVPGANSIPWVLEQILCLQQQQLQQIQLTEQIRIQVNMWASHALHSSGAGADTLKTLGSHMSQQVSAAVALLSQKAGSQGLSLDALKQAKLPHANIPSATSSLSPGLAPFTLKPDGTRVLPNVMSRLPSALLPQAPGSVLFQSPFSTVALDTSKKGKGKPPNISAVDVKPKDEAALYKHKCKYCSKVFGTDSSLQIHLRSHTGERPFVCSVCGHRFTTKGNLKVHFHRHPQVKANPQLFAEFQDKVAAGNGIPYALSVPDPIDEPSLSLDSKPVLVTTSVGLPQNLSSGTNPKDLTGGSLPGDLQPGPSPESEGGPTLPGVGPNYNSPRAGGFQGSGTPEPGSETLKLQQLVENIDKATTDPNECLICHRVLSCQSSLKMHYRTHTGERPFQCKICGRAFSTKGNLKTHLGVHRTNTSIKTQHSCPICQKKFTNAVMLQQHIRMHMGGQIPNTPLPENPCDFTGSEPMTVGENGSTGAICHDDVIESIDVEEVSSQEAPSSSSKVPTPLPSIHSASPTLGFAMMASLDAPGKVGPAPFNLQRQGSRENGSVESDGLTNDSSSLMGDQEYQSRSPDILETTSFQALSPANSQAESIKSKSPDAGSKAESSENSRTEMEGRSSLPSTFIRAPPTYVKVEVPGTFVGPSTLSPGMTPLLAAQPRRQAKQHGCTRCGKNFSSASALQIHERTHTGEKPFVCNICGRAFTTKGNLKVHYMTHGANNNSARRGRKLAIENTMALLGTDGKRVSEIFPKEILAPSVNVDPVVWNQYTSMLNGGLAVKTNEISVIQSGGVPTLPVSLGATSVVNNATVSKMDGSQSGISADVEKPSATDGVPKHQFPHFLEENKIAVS
Setting: 8-mer, flanks averaged, mean of replicates
`GTTGGAAA` gave an E-score of 0.0826.
With `ATCTTAAC` the E-score was 0.189.
`AGTACTAC` has an E-score of 0.164.
`CGCACTAG` gave an E-score of -0.255.
`CAGGTTCA` gave an E-score of -0.114.
The E-score of `CTGGGAAC` is reported as -0.261.
With `GCACCGCC` the E-score was -0.418.
`CAAACACC` has an E-score of -0.0464.

Set 2 — target: CREBZF, bZIP domain (human); technique: DHFR protein complementation; sample: yeast; reference: wild-type JUN-FOS pair; reading: higher = stronger binding
Setting: single substitutions, most at no-binding floor
Parent: JUN, bZIP domain (human); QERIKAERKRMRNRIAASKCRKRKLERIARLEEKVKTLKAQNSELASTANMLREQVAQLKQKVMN; partner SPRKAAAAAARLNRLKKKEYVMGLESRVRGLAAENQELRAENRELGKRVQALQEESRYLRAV
For `E33C`, the binding fitness was -1.59 natural log.
`E54H` gave a binding fitness of -1.43 natural log.
The binding fitness of `A57L` is reported as -1.47 natural log.
With `A46P` the binding fitness was -1.43 natural log.
For `R53G`, the binding fitness was -1.58 natural log.
For `T37C`, the binding fitness was -1.53 natural log.
For `N42C`, the binding fitness was -1.42 natural log.
The binding fitness of `L59G` is reported as -1.09 natural log.

Set 3 — target: CCNE1, cyclin fold, Cln2 fusion (human); technique: yeast growth competition, sequencing; sample: yeast; setting: strong parent motif; reference: not given; reading: higher = stronger binding; parent: viral docking peptide; KGVKRKLFAEDSS
For `V3W`, “normalised enrichment score” read 5.24.
`L7I`: “normalised enrichment score” 4.07.
For `D11Q`, “normalised enrichment score” read 6.72.
Under “normalised enrichment score”, `E10I` is recorded as 6.33.
`E10D`: “normalised enrichment score” 7.74.

Set 4 — target: UBE2A UBC core domain (UniProt P49459); technique: yeast two-hybrid; sample: yeast; setting: mostly zero background; reference: not given; reading: higher = stronger interaction
Sequence of UniProt P49459 (whole entry, looked up): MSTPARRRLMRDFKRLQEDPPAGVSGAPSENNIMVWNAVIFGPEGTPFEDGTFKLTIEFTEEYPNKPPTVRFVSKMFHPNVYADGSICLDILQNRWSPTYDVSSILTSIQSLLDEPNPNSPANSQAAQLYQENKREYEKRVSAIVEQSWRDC
B1: RLIM RING domain (UniProt Q9NVW2); chain SFGENDALKTCSVCITEYTEGNKLRKLPCSHEYHVHCIDRWLSENSTCPICRRAVLASGNRE
B2: TRIM60 RING domain (UniProt Q495X7); chain ALVNLQEESSCPICLEYLKDPVTINCGHNFCRSCLSVSWKDLDDTFPCPVCRFCFPYKSFRR
B3: TRIM26 RING domain (UniProt Q12899); chain PLRSLEEEVTCSICLDYLRDPVTIDCGHVFCRSCTTDVRPISGSRPVCPLCKKPFKKENIRP
B4: MYCBP2 RING domain (UniProt O75592); chain TSLKQDADDMCMICFTEALSAAPAIQLDCSHIFHLQCCRRVLENRWLGPRITFGFISCPICKNKINHIVLKD
B5: MEX3B RING domain (UniProt Q6ZN04); chain SGLRRKGSRDCSVCFESEVIAALVPCGHNLFCMECANRICEKSEPECPVCHTAVTQAIRIF
B6: RNF2 RING domain (UniProt Q99496); chain SPRSLHSELMCPICLDMLKNTMTTKECLHRFCADCIITALRSGNKECPTCRKKLVSKRSLR
B7: MKRN2 RING domain (UniProt Q9H000); chain FAFQASQDKVCSICMEVILEKASASERRFGILSNCNHTYCLSCIRQWRCAKQFENPIIKSCPECRVISEFVIPSV
`B1 (RLIM RING domain)` — result for “lacZ reporter activity”: 0.
For `B2 (TRIM60 RING domain)`, “lacZ reporter activity” read 0.
`B3 (TRIM26 RING domain)` — result for “lacZ reporter activity”: 0.
For `B4 (MYCBP2 RING domain)`, “lacZ reporter activity” read 0.
`B5 (MEX3B RING domain)`: “lacZ reporter activity” 0.
For `B6 (RNF2 RING domain)`, “lacZ reporter activity” read 0.
`LGTKLEAKYLCSACRNVLRRPFQAQCGHRYCSFCLASILSSGPQNCAACVHEGIYEEGIS (TRAF2 RING domain (UniProt Q12933))` — result for “lacZ reporter activity”: 0.
For `KPDKMEETLTCIICQDLLHDCVSLQPCMHTFCAACYSGWMERSSLCPTCRCPVERICKNH (CHFR RING domain (UniProt Q96EP1))`, “lacZ reporter activity” read 0.
`B7 (MKRN2 RING domain)`: “lacZ reporter activity” 0.
`RYRQMEERITCPICIDSHIRLVFQCGHGACAPCGSALSACPICRQPIRDRIQIF (MIB2 RING domain (UniProt Q96AX9))`: “lacZ reporter activity” 0.

Some of these lines once more (set 2):
With `A46P` the binding fitness was -1.43 natural log.
For `R53G`, the binding fitness was -1.58 natural log.
For `T37C`, the binding fitness was -1.53 natural log.
For `N42C`, the binding fitness was -1.42 natural log.
